Assay results from different studies.
Each line is one published result; not all experiments were run side by side. Numbers after ± are the reported error.
Organism: Pseudomonas aeruginosa

SMILES | assay | test system | conditions | MIC
CC(C)C[C@H](NC(=O)[C@H](CC(C)C)NC(=O)[C@H](CCCCN)NC(=O)[C@H](CC(C)C)NC(=O)[C@H](CC(C)C)NC(=O)[C@H](CCCCN)NC(=O)[C@H](CCCCN)NC(=O)[C@H](CC(C)C)NC(=O)[C@H](CC(C)C)NC(=O)[C@H](CCCCN)NC(=O)[C@H](CC(C)C)NC(=O)[C@H](CC(C)C)NC(=O)[C@@H](N)CCCCN)C(=O)N[C@@H](CCCCN)C(N)=O |  | ATCC 19606, CAMHB | 18 h, 37 °C | > 19 µM
O=[N+]([O-])c1ccc(Sc2nc3ccccc3s2)c([N+](=O)[O-])c1 |  | ATCC 29853 |  | > 500 µg/mL
CC(C)[C@H](N)C(=O)N[C@@H](CS)C(=O)N1CCC[C@H]1C(=O)N[C@@H](Cc1c[nH]cn1)C(=O)N[C@@H](CCCNC(=N)N)C(=O)N[C@@H](CS)C(=O)O | broth microdilution | MTCC 1688 | 37 °C | 50 µg/mL
CC[C@H](C)[C@H](NC(=O)CNC(=O)[C@H](CCCNC(=N)N)NC(=O)[C@H](Cc1ccccc1)NC(=O)[C@@H](NC(=O)[C@H](Cc1c[nH]cn1)NC(=O)[C@H](Cc1c[nH]cn1)NC(=O)[C@H](Cc1ccccc1)NC(=O)[C@@H](N)Cc1ccccc1)[C@@H](C)CC)C(=O)N[C@H](C(=O)N[C@@H](Cc1c[nH]cn1)C(=O)N[C@H](C(=O)NCC(=O)N[C@@H](CCCCN)C(=O)N[C@H](C(=O)N[C@@H](C)C(=O)N[C@@H](Cc1c[nH]cn1)C(=O)N[C@@H](CCCNC(=N)N)C(=O)N[C@@H](CC(C)C)C(=O)N[C@H](C(=O)N[C@H](C(=O)NCC(N)=O)[C@@H](C)O)C(C)C)[C@@H](C)O)C(C)C)C(C)C | broth microdilution | ATCC 10662 | 18 h, 37 °C | 25 µg/mL
CC(C)(C)c1cccc(C(C)(C)C)c1Oc1ccc([N+](=O)[O-])cc1[N+](=O)[O-] |  | ATCC 29853 |  | 125 µg/mL
CC[C@H](C)CCCCC(=O)N[C@@H](CCN)C(=O)N[C@H](C(=O)N[C@@H](CCN)C(=O)N[C@H]1CCNC(=O)[C@H]([C@@H](C)O)NC(=O)[C@H](CCN)NC(=O)[C@H](CCN)NC(=O)[C@H](CC(C)C)NC(=O)[C@@H](CC(C)C)NC(=O)[C@H](CCN)NC1=O)[C@@H](C)O | broth microdilution | ATCC 27853 | 20 h, 37 °C | 0.22 to 0.43 µM
CC[C@H](C)CCCCC(=O)N[C@@H](CCN)C(=O)N[C@H](C(=O)N[C@@H](CCN)C(=O)N[C@H]1CCNC(=O)[C@H]([C@@H](C)O)NC(=O)[C@H](CCN)NC(=O)[C@H](CCN)NC(=O)[C@H](CC(C)C)NC(=O)[C@@H](Cc2ccccc2)NC(=O)[C@H](CCN)NC1=O)[C@@H](C)O | broth microdilution | PAO1, CAMHB | 24 h, 37 °C | 2 µg/mL
CC(C)C[C@H](NC(=O)[C@H](CCCNC(=N)N)NC(=O)[C@H](CO)NC(=O)[C@H](CC(=O)O)NC(=O)[C@H](Cc1ccccc1)NC(=O)[C@H](CCCNC(=N)N)NC(=O)[C@H](Cc1c[nH]c2ccccc12)NC(=O)[C@@H](N)CCC(=O)O)C(=O)N[C@@H](C)C(=O)N[C@@H](Cc1ccccc1)C(=O)N[C@@H](Cc1c[nH]cn1)C(=O)N[C@@H](Cc1c[nH]cn1)C(=O)N[C@H](C(=O)N[C@@H](C)C(=O)N[C@@H](CCCNC(=N)N)C(=O)N[C@@H](CCC(=O)O)C(=O)N[C@@H](CC(C)C)C(=O)N[C@@H](Cc1c[nH]cn1)C(=O)N1CCC[C@H]1C(=O)N[C@@H](CCC(=O)O)C(=O)O)C(C)C | broth microdilution | PTCC 1074 | overnight, 37 °C | 20 µM
CC[C@H](C)[C@H](NC(=O)CNC(=O)[C@H](CC(=O)O)NC(=O)[C@H](CCCNC(=N)N)NC(=O)[C@@H](NC(=O)[C@H](CC(N)=O)NC(=O)[C@H](CCCNC(=N)N)NC(=O)CNC(=O)[C@@H](NC(=O)[C@H](CCCCN)NC(=O)[C@H](CCC(=O)O)NC(=O)[C@@H](NC(=O)[C@H](CCCCN)NC(=O)[C@H](CCCCN)NC(=O)[C@H](Cc1ccccc1)NC(=O)[C@@H](NC(=O)[C@H](CCCCN)NC(=O)[C@H](Cc1c[nH]c2ccccc12)NC(=O)[C@@H](N)CCCCN)[C@@H](C)CC)[C@@H](C)CC)C(C)C)C(C)C)C(=O)N[C@H](C(=O)N[C@@H](CCCCN)C(=O)N[C@@H](C)C(=O)NCC(=O)N1CCC[C@H]1C(=O)N[C@@H](C)C(=O)N[C@H](C(=O)N[C@@H](CCC(N)=O)C(=O)N[C@H](C(=O)N[C@H](C(=O)NCC(=O)N[C@@H](CCC(N)=O)C(=O)N[C@@H](C)C(=O)N[C@H](C(=O)N[C@@H](CO)C(=O)N[C@H](C(=O)N[C@@H](C)C(=O)N[C@@H](CCCCN)C(N)=O)[C@@H](C)CC)[C@@H](C)O)C(C)C)C(C)C)C(C)C)[C@@H](C)CC | broth microdilution | ATCC 27850 | 20 h, 37 °C | 7 ± 0.8 µg/mL
CC[C@H](C)[C@H](NC(=O)[C@H](C)NC(=O)[C@@H](NC(=O)[C@H](C)NC(=O)CNC(C)=O)[C@@H](C)O)C(=O)N[C@@H](CCCCN)C(=O)N[C@@H](CCC(N)=O)C(=O)N[C@H](C(=O)N[C@@H](CCCCN)C(=O)N[C@@H](CCCCN)C(=O)N[C@@H](CC(C)C)C(=O)N[C@@H](Cc1ccccc1)C(=O)N[C@@H](CCCCN)C(=O)N[C@@H](CCCCN)C(=O)N[C@@H](CCCCN)C(=O)NCC(=O)NCC(N)=O)C(C)C | broth microdilution | ATCC 9027 | 24 h, 37 °C | 310 µM

Excerpt of the above:
SMILES | assay | test system | conditions | MIC
O=[N+]([O-])c1ccc(Sc2nc3ccccc3s2)c([N+](=O)[O-])c1 |  | ATCC 29853 |  | > 500 µg/mL
